Published values from different studies.
Each line is one published result; not all experiments were run side by side. Numbers after ± are the reported error.
Slc6a3: Sodium-dependent dopamine transporter (Slc6a3, Rattus norvegicus, UniProt P23977)
Chain of UniProt P23977 (whole entry, looked up): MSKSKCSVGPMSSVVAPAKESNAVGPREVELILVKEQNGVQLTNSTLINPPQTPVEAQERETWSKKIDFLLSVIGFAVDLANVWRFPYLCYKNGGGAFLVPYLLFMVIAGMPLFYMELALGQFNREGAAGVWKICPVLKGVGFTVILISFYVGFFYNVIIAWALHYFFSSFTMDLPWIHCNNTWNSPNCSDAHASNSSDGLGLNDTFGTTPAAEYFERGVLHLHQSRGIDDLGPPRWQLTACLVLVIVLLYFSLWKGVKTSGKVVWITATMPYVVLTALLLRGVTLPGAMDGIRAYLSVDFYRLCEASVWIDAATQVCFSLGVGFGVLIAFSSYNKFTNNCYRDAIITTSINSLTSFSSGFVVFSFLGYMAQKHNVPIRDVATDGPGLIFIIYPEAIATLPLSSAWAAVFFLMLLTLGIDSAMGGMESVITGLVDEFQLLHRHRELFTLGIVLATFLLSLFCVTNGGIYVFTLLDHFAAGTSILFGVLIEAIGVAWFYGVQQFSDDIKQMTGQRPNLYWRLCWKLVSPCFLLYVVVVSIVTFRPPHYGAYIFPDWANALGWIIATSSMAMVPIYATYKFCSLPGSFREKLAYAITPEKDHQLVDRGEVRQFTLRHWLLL
Chain of UniProt P0C6U2 (whole entry, looked up): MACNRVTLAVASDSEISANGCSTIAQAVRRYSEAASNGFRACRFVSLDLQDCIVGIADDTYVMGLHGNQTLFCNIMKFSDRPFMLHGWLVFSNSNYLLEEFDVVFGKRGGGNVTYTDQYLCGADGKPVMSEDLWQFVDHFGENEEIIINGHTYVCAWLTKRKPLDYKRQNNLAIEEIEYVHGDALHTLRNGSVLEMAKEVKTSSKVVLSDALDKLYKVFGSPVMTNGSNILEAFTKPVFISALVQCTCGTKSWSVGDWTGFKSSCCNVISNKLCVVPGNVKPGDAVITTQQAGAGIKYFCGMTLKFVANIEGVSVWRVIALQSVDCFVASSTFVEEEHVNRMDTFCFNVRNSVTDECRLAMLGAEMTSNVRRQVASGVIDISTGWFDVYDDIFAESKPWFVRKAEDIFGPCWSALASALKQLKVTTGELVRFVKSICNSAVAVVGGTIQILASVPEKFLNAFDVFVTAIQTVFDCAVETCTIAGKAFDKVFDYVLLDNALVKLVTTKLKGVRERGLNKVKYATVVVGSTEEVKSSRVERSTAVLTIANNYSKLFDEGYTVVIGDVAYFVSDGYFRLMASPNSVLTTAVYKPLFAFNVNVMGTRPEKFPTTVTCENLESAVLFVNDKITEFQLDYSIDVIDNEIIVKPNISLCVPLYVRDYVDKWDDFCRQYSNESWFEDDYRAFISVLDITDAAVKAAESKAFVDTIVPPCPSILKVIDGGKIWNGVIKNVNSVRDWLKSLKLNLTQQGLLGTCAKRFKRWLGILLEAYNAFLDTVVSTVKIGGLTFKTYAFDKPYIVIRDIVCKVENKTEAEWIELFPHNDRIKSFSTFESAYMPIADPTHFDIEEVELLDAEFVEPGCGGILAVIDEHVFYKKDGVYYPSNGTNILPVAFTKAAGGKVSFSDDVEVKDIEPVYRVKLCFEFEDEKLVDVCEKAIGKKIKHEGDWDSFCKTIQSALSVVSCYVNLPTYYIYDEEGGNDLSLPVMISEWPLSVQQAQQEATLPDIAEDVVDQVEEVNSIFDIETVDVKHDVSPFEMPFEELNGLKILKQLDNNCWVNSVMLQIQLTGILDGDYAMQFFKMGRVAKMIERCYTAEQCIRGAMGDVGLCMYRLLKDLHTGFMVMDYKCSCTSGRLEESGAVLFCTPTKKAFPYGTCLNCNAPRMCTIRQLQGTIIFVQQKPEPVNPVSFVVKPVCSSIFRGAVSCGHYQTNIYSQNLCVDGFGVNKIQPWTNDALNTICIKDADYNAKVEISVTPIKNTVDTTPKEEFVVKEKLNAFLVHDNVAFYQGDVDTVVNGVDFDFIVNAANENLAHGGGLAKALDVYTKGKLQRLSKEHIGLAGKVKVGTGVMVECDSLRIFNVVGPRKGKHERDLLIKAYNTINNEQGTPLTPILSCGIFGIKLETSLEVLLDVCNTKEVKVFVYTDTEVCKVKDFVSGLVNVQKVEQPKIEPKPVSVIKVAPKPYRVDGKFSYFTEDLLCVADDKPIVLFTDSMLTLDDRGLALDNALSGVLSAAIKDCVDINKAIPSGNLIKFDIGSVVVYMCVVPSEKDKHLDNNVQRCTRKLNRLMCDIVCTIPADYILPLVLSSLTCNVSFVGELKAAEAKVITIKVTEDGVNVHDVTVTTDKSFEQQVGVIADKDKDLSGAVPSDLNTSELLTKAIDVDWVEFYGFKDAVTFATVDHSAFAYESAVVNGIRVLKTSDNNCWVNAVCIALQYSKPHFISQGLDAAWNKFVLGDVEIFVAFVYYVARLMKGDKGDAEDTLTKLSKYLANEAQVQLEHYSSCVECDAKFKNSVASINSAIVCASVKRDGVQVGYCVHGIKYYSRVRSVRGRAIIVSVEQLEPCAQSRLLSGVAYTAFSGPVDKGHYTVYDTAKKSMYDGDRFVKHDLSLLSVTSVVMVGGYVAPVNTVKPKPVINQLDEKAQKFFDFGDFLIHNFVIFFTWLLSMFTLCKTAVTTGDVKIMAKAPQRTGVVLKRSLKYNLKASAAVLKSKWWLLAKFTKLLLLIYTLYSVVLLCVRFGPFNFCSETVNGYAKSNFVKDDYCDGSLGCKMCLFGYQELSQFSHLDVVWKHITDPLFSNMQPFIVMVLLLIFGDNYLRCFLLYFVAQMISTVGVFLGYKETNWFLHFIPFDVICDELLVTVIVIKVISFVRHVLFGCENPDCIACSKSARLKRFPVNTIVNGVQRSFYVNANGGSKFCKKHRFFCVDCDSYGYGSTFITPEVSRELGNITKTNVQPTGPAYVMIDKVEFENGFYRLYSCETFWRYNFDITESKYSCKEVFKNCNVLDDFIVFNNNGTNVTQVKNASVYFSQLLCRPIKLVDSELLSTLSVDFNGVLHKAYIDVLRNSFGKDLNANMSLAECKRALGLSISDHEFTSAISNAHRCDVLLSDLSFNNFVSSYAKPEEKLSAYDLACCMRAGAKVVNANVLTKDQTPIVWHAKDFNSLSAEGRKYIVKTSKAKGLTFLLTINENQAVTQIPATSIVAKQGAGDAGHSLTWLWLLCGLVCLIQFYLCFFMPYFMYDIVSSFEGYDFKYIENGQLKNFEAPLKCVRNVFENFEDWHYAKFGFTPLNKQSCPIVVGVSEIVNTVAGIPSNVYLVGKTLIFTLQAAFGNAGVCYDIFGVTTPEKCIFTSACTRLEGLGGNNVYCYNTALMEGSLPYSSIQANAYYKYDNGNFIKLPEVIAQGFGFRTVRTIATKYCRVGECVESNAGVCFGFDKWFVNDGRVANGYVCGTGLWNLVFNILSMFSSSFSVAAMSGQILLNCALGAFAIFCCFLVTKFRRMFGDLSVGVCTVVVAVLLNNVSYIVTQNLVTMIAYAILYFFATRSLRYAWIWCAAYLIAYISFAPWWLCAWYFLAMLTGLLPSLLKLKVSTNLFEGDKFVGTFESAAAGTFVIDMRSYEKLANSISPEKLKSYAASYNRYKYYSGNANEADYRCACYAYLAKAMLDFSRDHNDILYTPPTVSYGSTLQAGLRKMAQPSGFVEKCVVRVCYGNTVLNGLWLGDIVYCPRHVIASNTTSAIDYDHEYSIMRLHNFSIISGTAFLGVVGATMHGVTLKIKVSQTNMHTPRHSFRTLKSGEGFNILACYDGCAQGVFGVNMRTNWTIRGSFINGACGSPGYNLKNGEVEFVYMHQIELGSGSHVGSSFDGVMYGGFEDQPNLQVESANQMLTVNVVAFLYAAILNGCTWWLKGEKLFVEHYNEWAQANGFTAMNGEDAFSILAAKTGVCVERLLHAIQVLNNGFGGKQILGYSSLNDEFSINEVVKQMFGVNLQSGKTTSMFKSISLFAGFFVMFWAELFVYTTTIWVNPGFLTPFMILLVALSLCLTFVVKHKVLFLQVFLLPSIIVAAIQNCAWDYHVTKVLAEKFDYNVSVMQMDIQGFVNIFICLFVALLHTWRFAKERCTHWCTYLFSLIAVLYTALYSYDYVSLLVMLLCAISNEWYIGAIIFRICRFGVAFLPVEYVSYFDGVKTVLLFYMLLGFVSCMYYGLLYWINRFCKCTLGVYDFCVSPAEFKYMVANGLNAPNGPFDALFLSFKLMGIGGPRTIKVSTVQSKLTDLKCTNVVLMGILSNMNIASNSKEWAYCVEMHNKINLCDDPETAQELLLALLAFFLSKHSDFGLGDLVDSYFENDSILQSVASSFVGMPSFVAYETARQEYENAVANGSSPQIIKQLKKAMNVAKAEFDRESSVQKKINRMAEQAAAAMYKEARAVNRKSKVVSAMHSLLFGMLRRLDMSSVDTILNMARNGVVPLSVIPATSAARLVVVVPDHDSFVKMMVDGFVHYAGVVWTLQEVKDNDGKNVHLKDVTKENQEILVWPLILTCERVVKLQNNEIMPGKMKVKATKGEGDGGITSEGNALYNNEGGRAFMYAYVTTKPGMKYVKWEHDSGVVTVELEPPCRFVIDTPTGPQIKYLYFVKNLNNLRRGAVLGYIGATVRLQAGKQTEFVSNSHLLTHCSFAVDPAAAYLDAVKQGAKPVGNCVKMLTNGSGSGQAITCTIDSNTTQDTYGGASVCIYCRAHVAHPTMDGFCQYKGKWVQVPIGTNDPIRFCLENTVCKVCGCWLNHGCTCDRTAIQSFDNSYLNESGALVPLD
Chain of UniProt P28236 (whole entry, looked up): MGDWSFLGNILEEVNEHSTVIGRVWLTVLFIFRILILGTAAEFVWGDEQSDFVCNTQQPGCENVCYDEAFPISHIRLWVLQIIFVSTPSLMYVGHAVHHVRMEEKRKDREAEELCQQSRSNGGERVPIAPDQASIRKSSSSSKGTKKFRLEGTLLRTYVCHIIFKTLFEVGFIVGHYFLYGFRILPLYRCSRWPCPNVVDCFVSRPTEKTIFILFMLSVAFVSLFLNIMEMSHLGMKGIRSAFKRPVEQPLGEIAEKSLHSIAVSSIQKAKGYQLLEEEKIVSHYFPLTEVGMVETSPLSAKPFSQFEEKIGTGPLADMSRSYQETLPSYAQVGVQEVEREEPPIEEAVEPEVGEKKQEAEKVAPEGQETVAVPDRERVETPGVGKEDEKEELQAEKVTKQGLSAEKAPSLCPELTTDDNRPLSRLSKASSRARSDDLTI

N=C(N)NCCC[C@@H]1NC(=O)[C@H](CCCCNC(=O)CC[C@H](NC(=O)CCOCCOCCOCCOCCNC(=O)CN2CCN(CC(=O)O)CCN(CC(=O)O)CCN(CC(=O)O)CC2)C(=O)NCCCC[C@@H]2NC(=O)[C@@H](Cc3ccccc3)NC(=O)[C@H](CC(=O)O)NC(=O)CNC(=O)[C@H](CCCNC(=N)N)NC2=O)NC(=O)[C@@H](Cc2ccccc2)NC(=O)[C@H](CC(=O)O)NC(=O)CNC1=O [indium-111 labelled]
tumour to tissue ratio (athymic nude mice, female, U-87 MG glioma xenograft, tumour and liver; intravenous, 0.5 h; reference: tumour over liver): 2.16 ± 0.39

CCOC(=O)/C=C/[C@H](C[C@@H]1CCNC1=O)NC(=O)[C@@H]1[C@@H]2[C@H](CN1C(=O)[C@@H](NC(=O)C(F)(F)F)C(C)(C)C)C2(C)C
IC50 (Replicase polyprotein 1a, main protease (Human coronavirus 229E, UniProt P0C6U2); inhibitor, FRET): 0.29 ± 0.018 µM

CC[C@H](C)[C@H](NC(=O)[C@@H](NC(=O)[C@H](CC(=O)O)NC(C)=O)[C@@H](C)O)C(=O)N[C@@H](CCCNC(=N)N)C(=O)N[C@@H](CC(C)C)C(=O)N[C@@H](CC(C)C)C(=O)N[C@@H](Cc1ccccc1)C(=O)N[C@@H](CCC(N)=O)C(=O)N[C@@H](CC(C)C)C(=O)N[C@@H](CCSC)C(=O)N[C@@H](CCCNC(=N)N)C(=O)N1CCC[C@H]1C(=O)N1CCC[C@H]1C(=O)N[C@@H](CC(N)=O)C(=O)N[C@@H](CCSC)C(=O)N[C@H](C(=O)N1CCC[C@H]1C(=O)N[C@@H](C)C(=O)N[C@H](C(=O)N[C@@H](CC(N)=O)C(=O)N[C@@H](C)C(N)=O)C(C)C)[C@@H](C)O
antigen-experienced T cells (item: HA-41 tetramer; tetramer+ CD4 T cells, PBMC, healthy adults, HLA-DRB1*0101; dose not given, CD62L−CD45RA+/− or CD62L+CD45RA−): 67.3%

CCC[C@H](C(=O)c1ccccc1)N1CCCC1
IC50 (Slc6a3; dopamine clearance, inhibitor, fast-scan cyclic voltammetry; rat striatal slices): 0.776 µM

CCCCCc1cc(O)c2c(c1)OC(C)(C)C1CCC(C)=CC21 (single isomer, unassigned; (-))
IC50 (Cytochrome P450 1A2 (CYP1A2, Homo sapiens, UniProt P05177); inhibitor; HEK cell microsomes; 30 min preincubation without NADPH): 2.7 ± 1 µM

Cc1ccccc1N1C(=O)/C(=C/c2ccc(OCc3cccc(C(=O)O)c3)cc2)C(=O)NC1=S
IC50 (PTPRC (Homo sapiens, UniProt P08575); enzyme activity, inhibitor): 30.1 µM

CO[C@H]1[C@@H](O)[C@H](n2ccc(=O)[nH]c2=O)O[C@@H]1[C@@H](O[C@H]1OC(C(=O)N[C@H]2N=C(c3ccccc3)c3ccccc3NC2=O)=C[C@H](O)[C@@H]1O)C(N)=O
IC50 (Phospho-N-acetylmuramoyl-pentapeptide-transferase (Mycobacterium tuberculosis, UniProt P9WMW7); enzyme activity, inhibitor, HPLC): 0.095 µM

Cc1[nH]c2cc(Cl)cc(Cl)c2c1CCN
IC50 (GTPase KRas (KRAS, Homo sapiens, UniProt P01116, G12D); enzyme activity, inhibitor): 1750 µM

CCCCCCCCC(=O)NCc1ccc(O)c(OC)c1
IC50 (mouse mAb 1-F12; antibody binding, indirect competitive ELISA): 0.252 µg/mL

COc1ccc(C[C@H]2C(=O)N(C)[C@@H](Cc3ccc(O)cc3)C(=O)N(C)[C@@H](Cc3ccccc3)C(=O)N[C@@H](CC(N)=O)C(=O)NCC(=O)N(C)[C@@H](Cc3ccc(O)cc3)C(=O)N[C@@H](CC(N)=O)C(=O)N[C@@H](Cc3c[nH]cn3)C(=O)N[C@@H](Cc3ccc(O)cc3)C(=O)N[C@@H](Cc3c[nH]c4ccccc34)C(=O)N[C@H](C(N)=O)CSCC(=O)N[C@H](Cc3ccc(O)cc3)C(=O)N[C@@H](CC(=O)O)C(=O)N[C@@H](CO)C(=O)N[C@@H](Cc3ccc(O)cc3)C(=O)N[C@@H](C)C(=O)N2C)cc1
AC50 (ipgm-1 (Brugia malayi, UniProt Q4VWF8); enzyme activity, inhibitor, luminescent coupled-enzyme ATP): 0.0245 µM

CCCCCn1cc(C(=O)Cc2ccccc2OC)c2ccccc21
IC50 (CNR1 (Homo sapiens, UniProt P21554); ligand displacement, radioligand; cell membranes): 0.21 µM

CN[C@](C)(C[18F])C(=O)O
tracer uptake (SK-OV-3 tumour model; host not given, lung; 15 min, tumour-bearing): 3.2 %ID/g

CC(=O)Oc1cccc2[nH]cc(CC[N+](C)(C)C)c12
IC50 (Slc6a3; transporter uptake, inhibitor, radiometric): > 10 µM

OC(c1ccccc1)(c1ccccc1)[C@H]1CCCN1
IC50 (Gap junction alpha-8 protein (Gja8, Mus musculus, UniProt P28236); gap junction current, inhibitor, dual whole-cell voltage clamp; transfected mouse N2a cell pairs): 10 µM

CCC1CN2CCC3(O)C(=Nc4cccc(OC)c43)C2CC1C(=COC)C(=O)OC (stereo not drawn)
IC50 (UGT1A1 (Homo sapiens, UniProt P22309); enzyme activity, inhibitor; 2 h, pH 7.4): 7.13 µM

Some of these lines once more:
CC[C@H](C)[C@H](NC(=O)[C@@H](NC(=O)[C@H](CC(=O)O)NC(C)=O)[C@@H](C)O)C(=O)N[C@@H](CCCNC(=N)N)C(=O)N[C@@H](CC(C)C)C(=O)N[C@@H](CC(C)C)C(=O)N[C@@H](Cc1ccccc1)C(=O)N[C@@H](CCC(N)=O)C(=O)N[C@@H](CC(C)C)C(=O)N[C@@H](CCSC)C(=O)N[C@@H](CCCNC(=N)N)C(=O)N1CCC[C@H]1C(=O)N1CCC[C@H]1C(=O)N[C@@H](CC(N)=O)C(=O)N[C@@H](CCSC)C(=O)N[C@H](C(=O)N1CCC[C@H]1C(=O)N[C@@H](C)C(=O)N[C@H](C(=O)N[C@@H](CC(N)=O)C(=O)N[C@@H](C)C(N)=O)C(C)C)[C@@H](C)O
antigen-experienced T cells (item: HA-41 tetramer; tetramer+ CD4 T cells, PBMC, healthy adults, HLA-DRB1*0101; dose not given, CD62L−CD45RA+/− or CD62L+CD45RA−): 67.3%

CCC[C@H](C(=O)c1ccccc1)N1CCCC1
IC50 (Slc6a3; dopamine clearance, inhibitor, fast-scan cyclic voltammetry; rat striatal slices): 0.776 µM
